# Results from different studies.
# Lines come from different studies, so protocols differ. ± marks the error that the study gave.
# Cell line: HUVEC
SMILES,test,setting,scale,endpoint,value
CC(=O)OC[C@H]1O[C@@H]([S-])[C@H](OC(C)=O)[C@@H](OC(C)=O)[C@@H]1OC(C)=O.CCP(CC)CC.[Au+],"total tube length, tube formation","IC10, 16 h",reference: untreated,inhibition,23%
CO[C@H]1/C=C\C=C(/C)C(=O)NC2=C(c3ccccc3)C(=O)C(NCCN(C)C)=C(C[C@@H](C)C[C@H](OC)[C@H](O)[C@@H](C)/C=C(\C)[C@@H]1OC(N)=O)C2=O,"cytotoxicity, MTT",,,IC50,17.7 ± 1.6 µM
O=C(Nc1cc(C(F)(F)F)ccc1N1CCCCC1)c1ccncc1,Matrigel,"concentration not given, 6 h, 37 °C",,tube formation,no effect
C[C@H](CS)C(=O)N1CCC[C@H]1C(=O)O,western blot,"10, 100, 1 µM, together with: angiotensin II",reference: angiotensin II alone,p-IκBα/IκBα ratio,30.1 % decrease
CNc1ncc2cc(-c3cc(OC)cc(OC)c3Cl)c(=O)n(CCc3ccc(NC(=O)C(C#N)=CC(C)(C)N4CC5(COC5)C4)cc3)c2n1,"ERK phosphorylation, inhibitor, measured: phospho-ERK1/2",together with: bFGF,,IC50,0.0034 ± 0.0008 µM
CO[C@H]1/C=C\C=C(/C)C(=O)NC2=C(C)C(=O)C(NCCN(C)C)=C(C[C@@H](C)C[C@H](OC)[C@H](O)[C@@H](C)/C=C(\C)[C@@H]1OC(N)=O)C2=O,"cytotoxicity, MTT",,,IC50,> 20 µM
CO[C@H]1O[C@H](COS(=O)(=O)O)[C@@H](O[C@@H]2O[C@@H](C(=O)O)[C@@H](O[C@H]3O[C@H](COS(=O)(=O)O)[C@@H](O[C@@H]4O[C@H](C(=O)O)[C@@H](O[C@H]5O[C@H](COS(=O)(=O)O)[C@@H](O)[C@H](O)[C@H]5NS(=O)(=O)O)[C@H](O)[C@H]4O)[C@H](OS(=O)(=O)O)[C@H]3NS(=O)(=O)O)[C@H](O)[C@H]2OS(=O)(=O)O)[C@H](O)[C@H]1NS(=O)(=O)O,β2GPI/anti-β2GPI antibody binding,up to 200 µM,,inhibition,no inhibition
O=C(Nc1ccc(-c2ccccc2)cc1)[C@H]1O[C@H](O[C@@H]2[C@@H](OCc3ccc4ccccc4c3)[C@H](O[C@H]3O[C@H](CNS(=O)(=O)O)[C@@H](OCc4ccc5ccccc5c4)C[C@H]3NS(=O)(=O)O)[C@@H](NS(=O)(=O)O)C[C@H]2NS(=O)(=O)O)[C@H](OCc2ccc3ccccc3c2)[C@@H](NS(=O)(=O)O)[C@@H]1OCc1ccc2ccccc2c1,cytotoxicity,48 h,,EC50,48.9 ± 3.83 µM
CC/C=C\C[C@H](O)/C=C/C=C\C/C=C\C=C\[C@@H](O)C/C=C\CCC(=O)O,HTRF,concentration not given,,cAMP level,increased
CN(C)C/C=C/C(=O)Nc1cc2c(Nc3ccc(F)c(Cl)c3)ncnc2cc1O[C@H]1CCOC1,,,,IC50,2.76 ± 0.22 µM

# Repeated from above:
SMILES,test,setting,scale,endpoint,value
C[C@H](CS)C(=O)N1CCC[C@H]1C(=O)O,western blot,"10, 100, 1 µM, together with: angiotensin II",reference: angiotensin II alone,p-IκBα/IκBα ratio,30.1 % decrease
